Assay results of several laboratories.
Compare with care: the assays were run in different laboratories. Numbers after ± are the reported error.

SMILES | assay | test system | conditions | scale | measurement | value
CC/C=C\C/C=C\C/C=C\C/C=C\C/C=C\CCCCOC(CC)C(=O)O (stereo not shown) | [14C] label | male Wistar rat, kidney cortex | oral, 100 mg/kg, 2 h |  | radioactivity concentration | 70.6 µg equiv/g
CC(C)c1cnc(-c2cc(Cl)ccc2F)cc1Nc1ccncc1C(=O)NC(CO)CO | monotherapy, measured: vomiting | human patients | oral, dose not given, grade 5, phase I A |  | patients with treatment-related adverse event | 0%
CC(C)[C@H](NC(=O)[C@@H]1CCCN1C(=O)[C@H](CCCNC(=N)N)NC(=O)[C@H](CS)NC(=O)[C@H](Cc1c[nH]c2ccccc12)NC(=O)[C@H](CCCNC(=N)N)NC(=O)[C@@H](Cc1ccccc1)NC(=O)[C@H](Cc1c[nH]cn1)NC(=O)[C@H](CCC(=O)O)NC(=O)[C@H](CS)NC(=O)[C@H](CS)NC(=O)[C@@H]1CC(=O)N[C@@H](CCCNC(=N)N)C(=O)NCC(=O)N[C@@H](CC(=O)O)C(=O)N[C@H](Cc2ccc(O)cc2)C(=O)N1)C(N)=O [technetium-99m labelled] |  | C57 mouse, female, B16/F1 melanoma | intravenous, 0.037 MBq, 24 h | relative to: tumour over kidneys | tumour to tissue ratio | 2.05
O=C([O-])CN1CCN(CC(=O)[O-])CCN(CC(=O)NCC2CCC(C(=O)NC(Cc3ccc4ccccc4c3)C(=O)NCCCCC(NC(=O)NC(CCC(=O)O)C(=O)O)C(=O)O)CC2)CCN(CC(=O)[O-])CC1.[44Sc+3] (stereo not shown) | PET/CT, OLINDA/EXM | human patients, kidneys | mean of patients |  | absorbed dose | 0.354 mSv/MBq
Cn1c(=O)oc2ccc(-c3ccc(CC(C#N)NC(=O)C4CNCCCO4)c(F)c3)cc21 (stereo not shown) |  | human | oral, 10 mg once daily, TEAE, multiple ascending dose |  | acne incidence | 0%
NCCCC[C@H](NC(=O)[C@@H]1CCCN1C(=O)[C@@H]1CSSC[C@H](NC(=O)CNC(=O)CNC(=O)CN)C(=O)N[C@@H](Cc2ccc(O)cc2)C(=O)N[C@@H](Cc2ccccc2)C(=O)N[C@@H](CCC(N)=O)C(=O)N[C@@H](CC(N)=O)C(=O)N1)C(=O)NCC(N)=O |  | Sprague Dawley rats | sc, 0.2 mg/kg, normalised to 0.1 mg/kg |  | dose-normalised AUC | 4.4 ng·h/mL
CC1(C)CNC(=O)c2ccccc21 |  | Sprague-Dawley rat, male | 5 mg/kg oral, 1 mg/kg intravenous |  | oral bioavailability | 62 ± 10%
CC(C)(Sc1cc[n+]([O-])cc1-c1ccc(C#N)c2ccccc12)C(=O)OC1OC(C(=O)O)C(O)C(O)C1O (stereo not shown) |  | urine | oral, 15 mg, 72 h, normal renal function | relative to: dose | fraction excreted unchanged | 18%
NS(=O)(=O)c1ccc(N2N=C(C(F)(F)F)CC2c2ccc(F)cc2F)cc1 (stereo not shown) | population PK model | Beagle dog | bootstrap median |  | ka | 0.22 h⁻¹
CCCC[C@H](NC(=O)CNC(=O)CNC(=O)CN1CCN(CC(=O)O)CCN(CC(=O)O)CCN(CC(=O)O)CC1)C(=O)N[C@H]1CC(=O)NCCCC[C@@H](C(N)=O)NC(=O)[C@H](Cc2c[nH]c3ccccc23)NC(=O)[C@H](CCCNC(=N)N)NC(=O)[C@@H](Cc2ccccc2)NC(=O)[C@H](Cc2c[nH]cn2)NC1=O [gallium-67 labelled] |  | C57 mice, B16/F1 melanoma | 4 h |  | tumour to skin uptake ratio | 31.1
CC(NC(=O)OC1OC(C(=O)O)C(O)C(O)C1O)c1cc(Cl)ccc1Cn1c(=S)[nH]c(=O)c2[nH]ccc21 (stereo not shown) | equilibrium dialysis | male Han Wistar rats, plasma | 0.1 µM, 16 h, 37 °C |  | fraction unbound | 19.6 ± 0.67%
O=C(OCc1cccc(O)c1O)c1ccc(O)c(CO)c1 |  | mice | intraperitoneal, 5 mg/kg/day, 14 days, with: fMLP PMA or LPS | relative to: vehicle | PBMC oxidative burst | no effect
O=c1nc(NO)ccn1[C@@H]1O[C@H](CO)[C@@H](O)[C@H]1O | RT-PCR, measured: CYP2B2 | normal rat, liver | oral, 80 mg/kg twice daily, 5 days | relative to: untreated rats | mRNA level | 0.1 fold
COc1cc2c(cc1OC)CN(CCCCn1ccc3cc(OCC[18F])ccc31)C2 |  | ICR mice, male | intravenous, 30 min |  | brain/blood ratio | 2.29
CC(C)[C@H](NC(=O)CNC(=O)[C@H](CCC(N)=O)NC(=O)[C@H](C)N)C(=O)O |  | human | 10 mg/kg, multiple dosing | up to | time of quantifiable concentrations | ≤ 30 min
O=C([O-])CN1CCN(CC(=O)[O-])CCN(CC(=O)NC[C@H]2CC[C@H](C(=O)N[C@H](Cc3cnc4ccccc4c3)C(=O)NCCCC[C@H](NC(=O)N[C@@H](CCC(=O)O)C(=O)O)C(=O)O)CC2)CCN(CC(=O)[O-])CC1.[64Cu+2] | PET/CT dosimetry OLINDA/EXM | healthy volunteers, brain | up to 24 h post-injection |  | absorbed dose | 0.00268 mGy/MBq
Cn1cnnc1Sc1c2c(c(C#N)c3nc4ccccc4n13)CCCC2 |  | C57BL/6 mouse, plasma | intravenous, 0.3 µg/g, 30 min |  | plasma concentration | 1 ng/mL
CC(OS(=O)(=O)O)c1nc(-c2ccc3c(c2)CCC3NC(=O)c2cnn(C)c2)no1 (stereo not shown) |  | human, pooled urine | oral, 20 mg | relative to: dose | radioactive dose excreted in urine | 1.14%
CC(C)(Sc1ccncc1-c1ccc(C#N)c2ccccc12)C(=O)OC1OC(C(=O)O)C(O)C(O)C1O (stereo not shown) |  | human, urine | oral, 15 mg, 72 h, normal renal function |  | renal clearance | 201 mL/min
Cc1ccc(OCC(=O)O)cc1 |  | Sprague-Dawley rat, male, plasma | oral gavage, 10 mg/kg of parent drug |  | AUC(0-last) | 5710 ± 2120 ng·h/mL
OCc1cn(Cc2ccc(-c3noc(-c4ccc(OCC[18F])c(C(F)(F)F)c4)n3)cc2)nn1 |  | rat, blood | intravenous, 2 h |  | tracer uptake | 0.35 %ID/g
C=C(C)C(=O)Nc1ccc(-c2c(-c3ccc(Oc4nccc(C)n4)cc3)c3c(N)ncnc3n2C)cc1 |  | beagle dog, plasma | oral |  | bioavailability | 45%

SMILES | assay | test system | conditions | scale | measurement | value
CCCC[C@@H]1NC(=O)[C@@H](NC(=O)[C@H](CCC(=O)O)NC(=O)CNC(=O)CN2CCN(CC(=O)O)CCN(CC(=O)O)CCN(CC(=O)O)CC2)CCCCNC(=O)C[C@@H](C(N)=O)NC(=O)[C@H](C(C)C)NC(=O)[C@@H]2CCCN2C(=O)[C@H](CCCNC(=N)N)NC(=O)CNC(=O)[C@H](Cc2c[nH]c3ccccc23)NC(=O)[C@H](CCCNC(=N)N)NC(=O)[C@@H](Cc2ccccc2)NC(=O)[C@H](Cc2c[nH]cn2)NC(=O)[C@H](CCC(=O)O)NC1=O [gallium-67 labelled] |  | C57 mice with B16/F1 melanoma, lung | intravenous, 4 h |  | tissue uptake | 0.11 ± 0.09 %ID/g
CC(C)C[C@H](NC(=O)[C@H](C)NC(=O)[C@H](C)NC(=O)[C@H](CCC(N)=O)NC(=O)[C@H](C)NC(=O)[C@H](CO)NC(=O)[C@H](CC(C)C)NC(=O)[C@H](C)NC(=O)[C@@H](NC(=O)[C@H](C)NC(=O)[C@H](Cc1ccc(O)cc1)NC(=O)[C@H](CO)NC(=O)[C@H](CCCCN)NC(=O)[C@H](C)NC(=O)[C@H](Cc1ccccc1)NC(=O)[C@H](CCCCN)NC(=O)[C@H](C)NC(=O)[C@H](Cc1ccccc1)NC(=O)[C@H](CCCCN)NC(=O)[C@H](CCCCN)NC(=O)[C@H](C)NC(=O)[C@H](Cc1ccccc1)NC(=O)[C@H](CCCCN)NC(=O)[C@H](C)NC(=O)[C@H](Cc1ccccc1)NC(=O)[C@H](CCCCN)NC(=O)[C@H](CCCCN)NC(=O)[C@H](C)NC(=O)[C@H](Cc1ccccc1)NC(=O)[C@H](CCCCN)NC(=O)[C@H](C)NC(=O)[C@H](Cc1ccccc1)NC(=O)[C@@H](N)CCCCN)C(C)C)C(=O)N[C@@H](C)C(=O)N[C@@H](CCCNC(=N)N)C(=O)N[C@@H](CCCNC(=N)N)C(=O)O |  | C57BL/6 mouse, male | intravenous, 8 mg/kg |  | clearance | 2.62 ± 0.367 mL/min/kg
O=C1C[C@@H](c2ccc(O)cc2)Oc2cc(O)ccc21 |  | human, both sexes | oral, 12 capsules |  | renal clearance | 0.35 to 1 mL/min/kg
COC[C@@H](CC(C)C)NC(=O)c1ccc(C)c(CO)c1 | LC-MS | human liver microsomes | 10 µM of parent drug, 60 min, pH 7.4, with: NADPH | relative to: parent drug at time zero | metabolite peak area | 5.2%
C=C(c1ccc(C(=O)O)c(F)c1)c1cc2c(cc1C)C(C)(C)C=CC2(C)C |  | Sprague-Dawley rat, male | oral, 100 mg/kg, 6 h, sesame oil vehicle |  | blood cholesterol | 97 ± 10.4 mg/dL
CCCC[C@H](NC(C)=O)C(=O)N[C@H]1CC(=O)NCCCC[C@@H](C(=O)N[C@@H](C(=O)N2CCC[C@@H]2C(N)=O)C(C)C)NC(=O)[C@H](Cc2c[nH]c3ccccc23)NC(=O)[C@H](CCCN=C(N)N)NC(=O)[C@@H](Cc2ccc3ccccc3c2)NC(=O)[C@@H]2CCCN2C1=O |  | healthy dogs, plasma | subcutaneous, 2.25 mg/kg per day, day 28, 24 h post-dose, median |  | plasma histamine | 17 ng/mL
NS(=O)(=O)c1ccc(-n2nc(C(F)(F)F)cc2-c2ccc(F)cc2F)cc1 | substrate | male Wistar rat liver microsomes | 20 µM, pH 7.4, mean of 0-90 and 0-60 min |  | metabolite formation rate | 44.5 pmol/min/mg
Oc1ccc2ccccc2c1/N=N/c1ccccc1 |  | rat whole blood QC samples | 5.0 µg/L, 4 h, room temperature, short-term stability |  | measured concentration | 4.92 µg/L
COc1cc(F)ccc1-c1ncnc(Nc2cccc(C[S@@](C)(=N)=O)c2)n1 |  | male Wistar rat, plasma | oral |  | oral bioavailability | 53%
COc1cc(C)c(Cc2ccc(O)cc2)cc1[C@@H]1S[C@H](CO)[C@@H](O)[C@H](O)[C@H]1O |  | Japanese T2DM patients, plasma | 2.5 mg luseogliflozin, day 7, once daily |  | AUC(0-τ) | 116 ± 15.3 ng·h/mL
NC12CNCCNCC(NCc3ccc(CNC(=O)CCCC(=O)NCc4ccc(-c5nncnn5)cc4)cc3)(CNCCNC1)CNCCNC2.[64Cu+2] | OLINDA dosimetry | brain | 48 h pretargeting interval, with: huA33-TCO pretargeting |  | mean absorbed dose | 0.0339 rad/mCi
COC(=O)c1ccc2c(c1)NC(=O)/C2=C(\Nc1ccc2c(c1)CCN2C(=O)CN1CCOCC1)c1ccccc1 |  | Sprague-Dawley rat | intravenous, 2 mg/kg | relative to: liver blood flow | blood clearance | ~30%
CCCC[C@H](NC(=O)CNC(=O)CNC(=O)CN1CCN(CC(=O)O)CCN(CC(=O)O)CCN(CC(=O)O)CC1)C(=O)N[C@H]1CC(=O)NCCCC[C@@H](C(N)=O)NC(=O)[C@H](Cc2c[nH]c3ccccc23)NC(=O)[C@H](CCCNC(=N)N)NC(=O)[C@@H](Cc2ccccc2)NC(=O)[C@H](Cc2c[nH]cn2)NC1=O [lead-203 labelled] |  | normal C57 mice, urine | intravenous, 0.056 MBq, 2 h |  | urinary excretion | 83.9 ± 11.8%
COC[C@@H](CC(C)C)NC(=O)c1ccc(CO)c(C)c1 | LC-MS | human liver microsomes | 10 µM of parent drug, 10 min, pH 7.4, with: NADPH | relative to: parent drug at time zero | metabolite peak area | 3.9%
CN(C)c1ccc(-c2nc3ccc(OCCCCCN4CCN5CCN(CC4)CC(=O)[O][Al]([18F])[O]C(=O)C5)cc3s2)cc1 |  | ICR mouse | intravenous, dose not given, 2 min |  | intestine uptake | 5.6 ± 1.41 % injected dose/organ
N=C(N)NCCC[C@@H]1NC(=O)[C@H](Cc2c[nH]c3ccccc23)NC(=O)[C@@H](CC2CCCCC2)NC(=O)[C@@H]2CCCN2C(=O)[C@@H](NC(=O)CCc2ccccc2)CCCNC1=O |  | C57BL/6J mice, brain | intravenous, 1 mg/kg, two-compartment model |  | apparent total clearance (CL/F) | 2.56 ng/(min·ng/g)
O=C(Nc1nccs1)C(c1cc(F)ccc1O)N1Cc2ccccc2C1=O (stereo not shown) |  | mouse plasma | 1500 ng/mL, 5 h, room temperature, short-term stability, high QC |  | recovery | 102 ± 2.3%
COC(=O)/C=C/C(=O)c1ccc(OC)cc1 | LC-MS/MS | rat plasma | 40 ng/mL, 15 days, -70 °C, long-term storage |  | recovery | 97.3 ± 4.02%
Fc1cc2nc3c4cccnc4c4ncccc4c3nc2cc1F.[Cl-].[Cl-].[Ru+2].c1ccncc1.c1ccncc1.c1ccncc1.c1ccncc1 |  | red blood cells, rabbit | 20 µM, 2 h, 37 °C |  | hemolysis | 1.05 ± 0.04%
Cc1ccccc1-c1cc(N2CC[N+](C)([O-])CC2)ncc1N(C)C(=O)C(C)(C)c1cc(C(F)(F)F)cc(C(F)(F)F)c1 |  | human, plasma | dose not given |  | time to terminal elimination phase | ~48 h
CCC1CC2C(C)=CC3C(=O)CCCC3C=CC(C)=CC2C(=O)O1 (stereo not shown) |  | ICR mouse, male, plasma | oral, 30 mg/kg, 30 min |  | plasma concentration | 1.5 ± 2.6 ng/mL

Some of these lines once more:
SMILES | assay | test system | conditions | scale | measurement | value
Oc1ccc2ccccc2c1/N=N/c1ccccc1 |  | rat whole blood QC samples | 5.0 µg/L, 4 h, room temperature, short-term stability |  | measured concentration | 4.92 µg/L
CC(C)(Sc1cc[n+]([O-])cc1-c1ccc(C#N)c2ccccc12)C(=O)OC1OC(C(=O)O)C(O)C(O)C1O (stereo not shown) |  | urine | oral, 15 mg, 72 h, normal renal function | relative to: dose | fraction excreted unchanged | 18%
